{"data": "Measured values of several laboratories", "note": "Each numbered part is a random draw from the data of one study; scales do not carry over between parts."}
{"data": "Block 1", "target": "Histone acetyltransferase KAT6A, winged helix 2, GST fusion (KAT6A, Homo sapiens, UniProt Q92794, residues 85-181)", "technique": "protein binding microarray", "molecule type": "double-stranded DNA, one strand shown", "matrix": "in vitro", "tested at": "not given", "setting": "8-mer, flanks averaged, mean of 2 arrays, mostly near background", "baseline": "not given", "direction": "higher = stronger binding", "Target sequence (chain)": "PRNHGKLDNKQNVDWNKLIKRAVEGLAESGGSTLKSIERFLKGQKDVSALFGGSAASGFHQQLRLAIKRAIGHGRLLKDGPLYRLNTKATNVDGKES"}
{"Strand": "CCACGGAG", "E-score": 0.128}
{"Strand": "AGCGACGA", "E-score": 0.0692}
{"Strand": "AAGCAACA", "E-score": 0.0602}
{"Strand": "ACTTACCA", "E-score": -0.131}
{"Strand": "TCTCAACA", "E-score": -0.00127}
{"Strand": "GAGATACA", "E-score": 0.168}
{"Strand": "ACCAACCT", "E-score": 0.0709}
{"Strand": "GCGACAGA", "E-score": -0.137}
{"data": "Block 2", "target": "Sal-like protein 4, full length isoform B (SALL4, Homo sapiens, UniProt Q9UJQ4-2, residues 1-616)", "technique": "universal PBM", "molecule type": "double-stranded DNA, one strand shown", "matrix": "in vitro", "tested at": "not given", "setting": "8-mer, flanks averaged, mean of replicates", "direction": "higher = stronger binding"}
{"Strand": "AAAACTTG", "E-score": 0.27}
{"Strand": "GTATCAAC", "E-score": -0.00305}
{"Strand": "CTCTTACA", "E-score": 0.0984}
{"Strand": "ATCATGCG", "E-score": -0.017}
{"Strand": "ACCGTAGA", "E-score": 0.0138}
{"Strand": "CGGTGCTC", "E-score": -0.246}
{"Strand": "CGAGATAA", "E-score": 0.1}
{"data": "Block 3", "target": "PABPC1L2, full length, GST fusion (mouse, UniProt A0ABA7IW68)", "technique": "RNAcompete", "molecule type": "RNA", "matrix": "in vitro", "tested at": "20 nM", "setting": "7-mer, probes averaged, single round", "baseline": "mean of 7-mers", "direction": "higher = stronger binding"}
{"Strand": "UCCAACU", "7-mer Z-score": -0.298}
{"Strand": "UUGUAGG", "7-mer Z-score": -0.228}
{"Strand": "UAAUCGG", "7-mer Z-score": -0.0627}
{"Strand": "CCUGCCG", "7-mer Z-score": -0.418}
{"Strand": "ACAGGCC", "7-mer Z-score": 0.066}
{"Strand": "UCGGCGU", "7-mer Z-score": -0.293}
{"data": "Mixed results"}
{"Substance": "PhoQ, residues 284 288 289 292 302 303 ALAMYF", "target": "PhoP, residues 12 14 15 18 19 NFCKL (Escherichia coli, UniProt P23836)", "test": "Sort-seq, measured: YFP reporter", "system": "E. coli", "setting": "PhoQ-PhoP variant library, with: 10 µM Mg2+", "scale": "baseline: high Mg2+ state, higher = stronger signaling", "endpoint": "fold induction", "result": 3.45}
{"note": "Repeated from above (block 2):"}
{"Strand": "GTATCAAC", "E-score": -0.00305}
{"Strand": "ACCGTAGA", "E-score": 0.0138}
